Experimental data of several laboratories.
Organism: Acinetobacter baumannii

Compound | test | test system | conditions | MIC
CN[C@H](CC(C)C)C(=O)N[C@H]1C(=O)N[C@@H](CC(N)=O)C(=O)N[C@H]2C(=O)N[C@H]3C(=O)N[C@H](C(=O)N[C@H](C(=O)NCc4cn(CC(=O)N[C@H](C(=O)N[C@@H](CCN)C(=O)N[C@H]5CCNC(=O)[C@H]([C@@H](C)O)NC(=O)[C@H](CCN)NC(=O)[C@H](CCN)NC(=O)[C@H](CC(C)C)NC(=O)[C@@H](CC(C)C)NC(=O)[C@H](CCN)NC5=O)[C@@H](C)O)nn4)c4cc(O)cc(O)c4-c4cc3ccc4O)[C@H](O)c3ccc(c(Cl)c3)Oc3cc2cc(c3O[C@@H]2O[C@H](CO)[C@@H](O)[C@H](O)[C@H]2O[C@H]2C[C@](C)(N)[C@H](O)[C@H](C)O2)Oc2ccc(cc2Cl)[C@H]1O | broth microdilution | BAA-747 |  | 13 µM
CCn1ccn(CC)c1=[Se] | broth microdilution | carbapenem-resistant | 24 h | > 40 µM
CCCCCCCC(=O)N[C@@H](CCN)C(=O)N[C@H](C(=O)N[C@@H](CCN)C(=O)N[C@H]1CCNC(=O)[C@H]([C@@H](C)O)NC(=O)[C@H](CCN)NC(=O)[C@H](CCN)NC(=O)[C@H](CC(C)C)NC(=O)[C@@H](C)NC(=O)[C@H](CCN)NC1=O)[C@@H](C)O | CLSI broth microdilution | 5075, CAMHB | 20 h, 37 °C | 256 µg/mL
CC[C@H](C)[C@H](NC(=O)[C@@H](CCCNC(=N)N)NC(=O)[C@H](CCCNC(=N)N)NC(=O)[C@@H](NC(=O)[C@H](Cc1c[nH]c2ccccc12)NC(=O)[C@H](CCCNC(=N)N)NC(=O)[C@@H]1CCCN1C(=O)[C@H](CCCNC(=N)N)NC(=O)[C@@H]1CCCN1C(=O)[C@H](CC(C)C)NC(=O)[C@H](Cc1ccc(O)cc1)NC(=O)[C@@H]1CCCN1C(=O)[C@@H]1CCCN1C(=O)[C@H](CCCCN)NC(=O)[C@H](CC(=O)O)NC(=O)[C@@H](N)C(C)C)C(C)C)C(=O)N[C@@H](Cc1ccc(O)cc1)C(=O)N[C@@H](CC(N)=O)C(=O)N[C@H](CCCNC(=N)N)C(N)=O | broth microdilution | DSM 30008 | 18 h, 37 °C, 25% MHB2 | 16 µg/mL
CN[C@@H]1[C@H](O)[C@H](NC)[C@H]2O[C@]3(O)[C@H](O[C@@H]2[C@H]1O)O[C@H](C)C[C@H]3NC(=O)Cc1ccc(Cl)cn1 | microbial growth, broth dilution | ATCC19606 |  | > 200 µg/mL
CC[C@H](C)[C@H](NC(=O)[C@@H](CCCNC(=N)N)NC(=O)[C@H](CCCNC(=N)N)NC(=O)[C@@H]1CCCN1C(=O)[C@@H]1CCCN1C(=O)[C@H](CCCNC(=N)N)NC(=O)[C@@H]1CCCN1C(=O)[C@H](CCCNC(=N)N)NC(=O)[C@@H]1CCCN1C(=O)[C@H](CCSC)NC(=O)[C@H](Cc1ccc(O)cc1)NC(=O)[C@@H]1CCCN1C(=O)[C@@H]1CCCN1C(=O)[C@H](CCCCN)NC(=O)[C@H](CC(=O)O)NC(=O)[C@@H](N)C(C)C)C(=O)N[C@@H](Cc1ccc(O)cc1)C(=O)N[C@@H](CC(N)=O)C(=O)N[C@H](CCCNC(=N)N)C(N)=O | broth microdilution | DSM 30008 | 18 h, 37 °C, 25% MHB2 | 64 µg/mL
CCCCCCCC(=O)N[C@@H](CCN)C(=O)N[C@H](C(=O)N[C@@H](CCN)C(=O)N[C@H]1CCNC(=O)[C@H]([C@@H](C)O)NC(=O)[C@H](CCN)NC(=O)[C@H](CCN)NC(=O)[C@H](CC(C)C)NC(=O)[C@@H](Cc2ccccc2)NC(=O)[C@H](C)NC1=O)[C@@H](C)O | CLSI broth microdilution | 5075, CAMHB | 20 h, 37 °C | > 512 µg/mL
CC[C@H](C)[C@H](NC(=O)[C@@H](CCCNC(=N)N)NC(=O)[C@H](CCCNC(=N)N)NC(=O)[C@H](Cc1c[nH]c2ccccc12)NC(=O)[C@H](Cc1c[nH]c2ccccc12)NC(=O)[C@H](CCCNC(=N)N)NC(=O)[C@@H]1CCCN1C(=O)[C@H](CCCNC(=N)N)NC(=O)[C@@H]1CCCN1C(=O)[C@H](CC(C)C)NC(=O)[C@H](Cc1ccc(O)cc1)NC(=O)[C@@H]1CCCN1C(=O)[C@@H]1CCCN1C(=O)[C@H](CCCCN)NC(=O)[C@H](CC(=O)O)NC(=O)[C@@H](N)C(C)C)C(=O)N[C@@H](Cc1ccc(O)cc1)C(=O)N[C@@H](CC(N)=O)C(=O)N[C@H](CCCNC(=N)N)C(N)=O | broth microdilution | DSM 30008 | 18 h, 37 °C, 25% MHB2 | 16 µg/mL
CCCCCCCC(=O)N[C@@H](CCN)C(=O)N[C@H](C(=O)N[C@@H](CCN)C(=O)N[C@H]1CCNC(=O)[C@H]([C@@H](C)O)NC(=O)[C@H](CCN)NC(=O)[C@H](CCN)NC(=O)[C@H](Cc2ccccc2F)NC(=O)[C@@H](CC(C)C)NC(=O)[C@H](CCN)NC1=O)[C@@H](C)O | broth microdilution | ATCC 19606, colistin-susceptible |  | 0.125 to 0.25 µg/mL
CC[C@H](C)[C@H](N)C(=O)N[C@@H](CCCNC(=N)N)C(=O)N[C@H](C(=O)N[C@@H](Cc1c[nH]c2ccccc12)C(=O)N[C@@H](Cc1ccccc1)C(=O)N[C@H](C(=O)N[C@@H](CCCCN)C(=O)N[C@H](C(=O)N[C@@H](CCCNC(=N)N)C(=O)N[C@@H](CCCCN)C(=O)N[C@@H](CCSC)C(=O)N[C@@H](CCCCN)C(=O)N[C@@H](C)C(=O)N[C@H](C(=O)N[C@@H](Cc1ccc(O)cc1)C(=O)N[C@@H](Cc1c[nH]cn1)C(=O)N[C@H](C(N)=O)[C@@H](C)O)[C@@H](C)CC)C(C)C)[C@@H](C)CC)C(C)C | broth dilution | ATCC 19606 |  | < 3.1 µM
CCCCCCCCCCCCCCCCCCn1cc(CN(CCC(=O)NCCN(CCC(=O)NCCN(CCC(=O)NCCN(C)C)CCC(=O)NCCN(C)C)CCC(=O)NCCN(CCC(=O)NCCN(C)C)CCC(=O)NCCN(C)C)CCC(=O)NCCN(CCC(=O)NCCN(CCC(=O)NCCN(C)C)CCC(=O)NCCN(C)C)CCC(=O)NCCN(CCC(=O)NCCN(C)C)CCC(=O)NCCN(C)C)nn1 | microbial growth, broth dilution | MDR, ATCCBAA1800 | 18 h | 6 µg/mL
CC[C@H](C)[C@H](NC(=O)[C@@H](CCCNC(=N)N)NC(=O)[C@H](CCCNC(=N)N)NC(=O)[C@@H]1CCCN1C(=O)[C@@H]1CCCN1C(=O)[C@H](CCCNC(=N)N)NC(=O)[C@H](Cc1c[nH]c2ccccc12)NC(=O)[C@H](CCCNC(=N)N)NC(=O)[C@@H]1CCCN1C(=O)[C@H](CC(C)C)NC(=O)[C@H](Cc1ccc(O)cc1)NC(=O)[C@@H]1CCCN1C(=O)[C@@H]1CCCN1C(=O)[C@H](CCCCN)NC(=O)[C@H](CC(=O)O)NC(=O)[C@@H](N)C(C)C)C(=O)N[C@@H](Cc1ccc(O)cc1)C(=O)N[C@@H](CC(N)=O)C(=O)N[C@H](CCCNC(=N)N)C(N)=O | broth microdilution | DSM 30008 | 18 h, 37 °C, 25% MHB2 | 16 µg/mL
CCCCCCCC(=O)N[C@@H](CCN)C(=O)N[C@H](C(=O)N[C@@H](CCN)C(=O)N[C@H]1CCNC(=O)[C@H]([C@@H](C)O)NC(=O)[C@H](CCN)NC(=O)[C@H](CCN)NC(=O)[C@H](Cc2cccc(F)c2)NC(=O)[C@@H](CC(C)C)NC(=O)[C@H](CCN)NC1=O)[C@@H](C)O | broth microdilution | colistin-resistant isolates |  | 4 to 8 µg/mL
C#CCNC(=O)[C@H]1NC(=O)[C@H]2NC(=O)[C@H](NC(=O)[C@@H]3NC(=O)[C@H](CC(N)=O)NC(=O)[C@H](NC(=O)[C@@H](CC(C)C)NC)[C@H](O)c4ccc(c(Cl)c4)Oc4cc3cc(c4O[C@@H]3O[C@H](CO)[C@@H](O)[C@H](O)[C@H]3O[C@H]3C[C@](C)(N)[C@H](O)[C@H](C)O3)Oc3ccc(cc3Cl)[C@H]2O)c2ccc(O)c(c2)-c2c(O)cc(O)cc21 | broth microdilution | BAA-747, cation-adjusted Mueller-Hinton broth | 18 to 20 h, 37 °C, 0.002% polysorbate 80 | 128 µg/mL
CCCCCCCC(=O)N[C@@H](CCN)C(=O)N[C@H](C(=O)N[C@@H](CCN)C(=O)N[C@H]1CCNC(=O)[C@H]([C@@H](C)O)NC(=O)[C@H](CCN)NC(=O)[C@H](CCN)NC(=O)[C@H](CC(C)C)NC(=O)[C@@H](Cc2c(F)c(F)c(F)c(F)c2F)NC(=O)[C@H](CCN)NC1=O)[C@@H](C)O | broth microdilution | ATCC 19606, colistin-susceptible |  | < 0.125 µg/mL
CC[C@H](C)[C@H](NC(=O)[C@H](CCCCN)NC(=O)[C@@H](NC(=O)[C@@H](NC(=O)[C@H](CC(C)C)NC(=O)[C@H](CCCNC(=N)N)NC(=O)[C@@H](NC(=O)[C@H](CC(C)C)NC(=O)[C@H](CCCNC(=N)N)NC(=O)CNC(=O)[C@H](Cc1ccccc1)NC(=O)[C@@H](N)CCCNC(=N)N)[C@@H](C)CC)[C@@H](C)CC)C(C)C)C(=O)N[C@@H](C)C(=O)N[C@@H](CCCNC(=N)N)C(=O)N[C@@H](CCCNC(=N)N)C(=O)N[C@@H](C)C(=O)N[C@@H](Cc1c[nH]cn1)C(=O)N[C@@H](CCCNC(=N)N)C(=O)N[C@@H](C)C(=O)N[C@@H](CCCNC(=N)N)C(=O)N1CCC[C@H]1C(=O)N[C@@H](C)C(=O)N[C@H](C(=O)N[C@@H](CCCCN)C(=O)N[C@@H](C)C(=O)N[C@@H](C)C(=O)N[C@@H](CO)C(=O)N[C@@H](CC(N)=O)C(=O)N[C@H](C(=O)N[C@@H](C)C(=O)N[C@@H](CCC(=O)O)C(=O)N[C@@H](CC(C)C)C(=O)N[C@@H](C)C(=O)N[C@@H](Cc1c[nH]cn1)C(=O)NCC(=O)N[C@@H](CCC(=O)O)C(N)=O)C(C)C)C(C)C | bacterial growth, broth microdilution | cation-adjusted Mueller Hinton broth | 18 h, 37 °C | ≤ 0.062 µM
CCCCCCCC(=O)N[C@@H](CCN)C(=O)N[C@H](C(=O)N[C@@H](CCN)C(=O)N[C@H]1CCNC(=O)[C@H]([C@@H](C)O)NC(=O)[C@H](CCN)NC(=O)[C@H](CCN)NC(=O)[C@H](C)NC(=O)[C@@H](Cc2ccccc2)NC(=O)[C@H](CCN)NC1=O)[C@@H](C)O | broth microdilution | ATCC 19606 | 20 h, 37 °C | 1 µg/mL
CC(=O)N[C@H](Cc1ccc(F)cc1)C(=O)N[C@@H](CCN)C(=O)N[C@H](C(=O)N[C@@H](CCN)C(=O)N[C@H]1CCNC(=O)[C@H]([C@@H](C)O)NC(=O)[C@H](CCN)NC(=O)[C@H](CCN)NC(=O)[C@H](CC(C)C)NC(=O)[C@@H](Cc2ccccc2)NC(=O)[C@H](CCN)NC1=O)[C@@H](C)O | broth microdilution | colistin-resistant isolates |  | 16 to 32 µg/mL

A few entries again:
Compound | test | test system | conditions | MIC
CC[C@H](C)[C@H](NC(=O)[C@H](CCCCN)NC(=O)[C@@H](NC(=O)[C@@H](NC(=O)[C@H](CC(C)C)NC(=O)[C@H](CCCNC(=N)N)NC(=O)[C@@H](NC(=O)[C@H](CC(C)C)NC(=O)[C@H](CCCNC(=N)N)NC(=O)CNC(=O)[C@H](Cc1ccccc1)NC(=O)[C@@H](N)CCCNC(=N)N)[C@@H](C)CC)[C@@H](C)CC)C(C)C)C(=O)N[C@@H](C)C(=O)N[C@@H](CCCNC(=N)N)C(=O)N[C@@H](CCCNC(=N)N)C(=O)N[C@@H](C)C(=O)N[C@@H](Cc1c[nH]cn1)C(=O)N[C@@H](CCCNC(=N)N)C(=O)N[C@@H](C)C(=O)N[C@@H](CCCNC(=N)N)C(=O)N1CCC[C@H]1C(=O)N[C@@H](C)C(=O)N[C@H](C(=O)N[C@@H](CCCCN)C(=O)N[C@@H](C)C(=O)N[C@@H](C)C(=O)N[C@@H](CO)C(=O)N[C@@H](CC(N)=O)C(=O)N[C@H](C(=O)N[C@@H](C)C(=O)N[C@@H](CCC(=O)O)C(=O)N[C@@H](CC(C)C)C(=O)N[C@@H](C)C(=O)N[C@@H](Cc1c[nH]cn1)C(=O)NCC(=O)N[C@@H](CCC(=O)O)C(N)=O)C(C)C)C(C)C | bacterial growth, broth microdilution | cation-adjusted Mueller Hinton broth | 18 h, 37 °C | ≤ 0.062 µM
